Measured values pooled from the literature.
Every numbered part comes from another study and shows a few of its results, in no order.

Block 1 — method: protein-binding microarray; form: hairpin DNA; medium: in vitro; tested at: not given; baseline: not given; direction: higher = stronger binding; endpoint: median fluorescence
Target: Cyclic AMP-dependent transcription factor ATF-1, full length (ATF1, Homo sapiens, UniProt P18846, residues 1-271)
Notes: whole hairpin DNA, median over replicate spots
Target sequence (chain): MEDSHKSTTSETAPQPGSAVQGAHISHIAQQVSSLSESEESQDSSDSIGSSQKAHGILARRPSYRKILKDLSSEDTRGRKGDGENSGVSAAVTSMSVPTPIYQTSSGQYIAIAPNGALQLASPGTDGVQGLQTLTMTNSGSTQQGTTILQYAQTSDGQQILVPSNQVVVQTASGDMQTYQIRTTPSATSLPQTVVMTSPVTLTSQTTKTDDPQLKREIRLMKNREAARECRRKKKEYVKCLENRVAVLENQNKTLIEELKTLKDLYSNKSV
GAGGCCCGATGACGTCAGCCTCCTGGCTGACGTCATCGGGCCTCACACTC (5mC at 7 37): 14800 a.u.
GAGGCCGGCTGACCTCAGCCTCCTGGCTGAGGTCAGCCGGCCTCACACTC (5mC at 14): 3100 a.u.
GAGGCCGGCTGTCGTCAGCCTCCTGGCTGACGACAGCCGGCCTCACACTC: 3980 a.u.
GAGGCCGACCACGTCGTGCCTCCTGGCACGACGTGGTCGGCCTCACACTC (5mC at 9 15 29): 4470 a.u.
GAGGCCGGATGACGTCAGCCTCCTGGCTGACGTCATCCGGCCTCACACTC (5mC at 34): 6060 a.u.
GAGGCCGGCTGACCGCAGCCTCCTGGCTGCGGTCAGCCGGCCTCACACTC: 3460 a.u.
GAGGCCGGCTGACGTCTGCCTCCTGGCAGACGTCAGCCGGCCTCACACTC: 5430 a.u.
GAGGCCGGATGACGCGAGCCTCCTGGCTCGCGTCATCCGGCCTCACACTC (5mC at 15): 10300 a.u.
GAGGCCGGATGACGACAGCCTCCTGGCTGTCGTCATCCGGCCTCACACTC: 5990 a.u.
GAGGCCGCCTGACGTCAGCCTCCTGGCTGACGTCAGGCGGCCTCACACTC (5mC at 8): 8870 a.u.
GAGGCCGGCTGACGTCAGCCTCCTGGCTGACGTCAGCCGGCCTCACACTC (5mC at 13 31): 3310 a.u.
GAGGCCCGCTGACGTCAGCCTCCTGGCTGACGTCAGCGGGCCTCACACTC (5mC at 7): 13400 a.u.
GAGGCCGGAAGACGTCAGCCTCCTGGCTGACGTCTTCCGGCCTCACACTC: 4540 a.u.
GAGGCCGGATGACGCGAGCCTCCTGGCTCGCGTCATCCGGCCTCACACTC (5mC at 15 29): 8690 a.u.
GAGGCCGGATGACGCGAGCCTCCTGGCTCGCGTCATCCGGCCTCACACTC: 6530 a.u.
GAGGCCGGCTGGCGTCAGCCTCCTGGCTGACGCCAGCCGGCCTCACACTC: 3800 a.u.
GAGGCCGACGGCGTCGTGCCTCCTGGCACGACGCCGTCGGCCTCACACTC (5mC at 9 15 29 34 35): 3840 a.u.
GAGGCCGGCTGAGGTCAGCCTCCTGGCTGACCTCAGCCGGCCTCACACTC: 3350 a.u.
GAGGCCGCGGACGTCGTGCCTCCTGGCACGACGTCCGCGGCCTCACACTC (5mC at 15 29 35 36): 3800 a.u.
GAGGCCGGCTGACCGCAGCCTCCTGGCTGCGGTCAGCCGGCCTCACACTC (5mC at 14): 3410 a.u.
GAGGCCGGATGACGGCAGCCTCCTGGCTGCCGTCATCCGGCCTCACACTC: 4580 a.u.
GAGGCCGGCTGACATCAGCCTCCTGGCTGATGTCAGCCGGCCTCACACTC: 3480 a.u.
GAGGCCGACGAAGTCGTGCCTCCTGGCACGACTTCGTCGGCCTCACACTC (5mC at 9 15 29 35): 2940 a.u.
GAGGCCGGCTGGCGTCAGCCTCCTGGCTGACGCCAGCCGGCCTCACACTC (5mC at 33): 7410 a.u.
GAGGCCGGATCGCGTCAGCCTCCTGGCTGACGCGATCCGGCCTCACACTC (5mC at 33): 5580 a.u.

Block 2 — method: protein-binding microarray; form: double-stranded DNA, one strand shown; medium: in vitro; tested at: not given; direction: higher = stronger binding; endpoint: E-score
Target: Myc proto-oncogene protein, bHLH-zipper, MAX partner unstated (MYC, Homo sapiens, UniProt P01106, residues 368-449)
Sequence of UniProt P01106 (368-449, looked up): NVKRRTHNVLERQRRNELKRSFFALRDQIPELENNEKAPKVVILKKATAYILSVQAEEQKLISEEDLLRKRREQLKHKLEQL
Notes: k-mer, scored over probes, only values ≥0.25
GCGCACGC: 0.424
GTGCGCCA: 0.288
ACGTCCAC: 0.253
GCGGTCAC: 0.264
CCGTGTCA: 0.298
CACGTCCC: 0.253
CGCCTGGC: 0.254
ACCCGCCC: 0.364
ACACCATG: 0.367
ATACATGC: 0.305
CGTGCATA: 0.313
AATGGCAT: 0.269
CAATGTGG: 0.355
CACATGCC: 0.445
CGGCATGC: 0.408
CATGGGGC: 0.388
GTGGAGCA: 0.268
CATGTGGG: 0.463

Block 3 — method: RNA Bind-n-Seq; form: RNA; medium: in vitro; tested at: 365 nM; baseline: no-protein control; direction: higher = stronger binding; endpoint: RBNS enrichment (R)
Target: RNA binding protein fox-1 homolog 2, RRM domain, GST-SBP tag (RBFOX2, Homo sapiens, UniProt O43251-10, residues 100-194)
Notes: natural RNA segment, single round, ends assumed
Constant ends, left off below: GGGAGUUCUACAGUCCGACGAUC … UGGAAUUCUCGGGUGCCAA
Target sequence (chain): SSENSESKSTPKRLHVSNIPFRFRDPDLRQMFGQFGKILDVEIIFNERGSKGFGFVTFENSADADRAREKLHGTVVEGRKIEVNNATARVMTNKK
AUAGAAACAAUUUCCUAUUACACAGAAAUGACUAAUUCCAGAGUCUCAUGAUAUAAUUUGCUAUAACAAUAUUGUAUUAUGCCUUGAAGUUUUAAGCAUUUAAUAUAAAA: 0.378
UUUAGGCUUAUGCCUAGAGUCACCCCAAAGAACUGAGACUGGCUGCAGCAGCCCAGCUGUGUUUCUCAUUGAUGAUAAUAGUAGGCUCUACUGCCCUCCCCUCCCCUAUC: 0.292
GGUGGGUCUAAUUUGGUAACGGUUUGAUUGUGCCUGGUUUUAUCACCUGUUCAGAUGAGAAGAUUUUUGUCUUUUGUAGCACUGAUAACCAGGAGAAGCCAUUAAAAGCC: 0.456
GGCUUCCUCUCUCUGGUCCUGCCACACAGAAGGAAAGCCCUGUCCAGGAUAAUGAGCGUUGCUGACACCCUUGCUAGCUUGUCCUGCCUACCUGCUUACCCCACUCCCUC: 0.33
CUUCCCCUCUCGGGCUUCAUUCCACCCAGCUGUCAGCUGACCUGCGGGUGAAGGGCUCAGCCUUCUCACCCAUCCCUCAUUGCUGGAACCAAGUGCCAAGACUACCACAA: 0.286
UACAGCCUCUGGCGAGGGCUCUGUGGAGAUUUUAAUUUUAGAAGGGGGCAUGAUGGCAGUGUUUCUCUUUUAGGACAACACCCACGGAACACUCAAAGGCUGUGUGACUU: 0.574
AGGAGCCAUAAGCUCUCCUUCAGACGGUGAGGCGGCUCCUGCCUCCUGCUACUGAAAUCUGCAGACAGCAGGGGCGGCUGCCUGGGGGGCUGGGCAGGCUGGGUGCCGGG: 0.321
AAUUGUACCACCAUCCCCCGCUGCUCACCAAACAUGGGCGUACUGGAAGGCUGUUAUACUCAGUGCCCGCCUUUGACCUAAAGCUGGCCAGCAUCCCUGGGGAAACCUGA: 0.429
GAGGGUUUAGCUGCAGGGAAGGUCCUGGGUAGAUUUCCUUUUUAAGGUUCCCAGGGUGUGGAUGCCAGCCUCCACCCAUGCACCUGGGUACUGGGGCACUGUUACCUCCA: 0.567
GUGAUGCUGUGUGAGAAGAUGGCUUUGCAGACCUCCUGCGCAGUCUCUUGCACUGUGUCCAUCACCACUUGGUGAGGACUCUUAAACUCUCUCCUCAUGUGCUUAUACCC: 0.301
AUUUUGAAGCCAAGCUUCACUUCUAAAGUGCCUACAGAGACUUGUAAAUGAAAAUGCAGCUCUGCACGAGUUUGAAACCGUCAUACCUCCUUCUAUUAGGAAUGGCAUAU: 0.357
UAUUUUUUUCCCUUCUGGCUGUAAGGUUUGUACAGACUGGUUUGGUAAAUGCUAAACUUUUGUGUCUUUUGCCUUUUUAAAGGAAUUGUUAACAUUGGAAUUGAGGGUAU: 0.72

Block 4 — method: universal PBM; form: double-stranded DNA, one strand shown; medium: in vitro; tested at: not given; direction: higher = stronger binding; endpoint: E-score
Target: Sal-like protein 4, full length isoform B (SALL4, Homo sapiens, UniProt Q9UJQ4-2, residues 1-616)
Notes: 8-mer, flanks averaged, mean of replicates
Target sequence (chain): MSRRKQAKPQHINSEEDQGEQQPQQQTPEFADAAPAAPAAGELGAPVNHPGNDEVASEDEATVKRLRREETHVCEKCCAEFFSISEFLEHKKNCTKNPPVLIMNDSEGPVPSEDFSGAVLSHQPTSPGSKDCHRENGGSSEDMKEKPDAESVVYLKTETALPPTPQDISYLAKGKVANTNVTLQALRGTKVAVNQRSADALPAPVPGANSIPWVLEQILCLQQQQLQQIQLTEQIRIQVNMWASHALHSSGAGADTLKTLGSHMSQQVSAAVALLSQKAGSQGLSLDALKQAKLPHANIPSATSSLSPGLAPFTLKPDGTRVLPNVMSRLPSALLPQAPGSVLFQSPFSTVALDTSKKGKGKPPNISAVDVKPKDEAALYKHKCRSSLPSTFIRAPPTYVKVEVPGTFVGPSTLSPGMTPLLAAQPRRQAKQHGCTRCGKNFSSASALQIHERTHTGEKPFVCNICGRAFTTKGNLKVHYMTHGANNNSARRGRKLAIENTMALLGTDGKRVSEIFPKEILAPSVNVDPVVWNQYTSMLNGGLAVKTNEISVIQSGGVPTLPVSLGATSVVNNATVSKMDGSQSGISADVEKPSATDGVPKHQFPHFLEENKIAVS
AATGCAGC: -0.148
GACTAGGC: -0.0486
ATCATCCA: 0.108
CGCACGCC: -0.275
ACACTTCC: -0.105
GCCGGACA: -0.246
GCGAGGAC: -0.292
CATAGGAC: -0.0198
GACCCCAA: -0.142
ACCCCCCG: -0.237
AAGTCCTC: -0.176
AGTTTGGA: 0.0997
CTTAGGAC: -0.116
CTGATAAG: 0.0568
AGGGAGGG: -0.274
CTGGCATA: -0.0206
CAGCTCGC: -0.198
CATGTGCC: -0.0533
AACCCCGT: -0.144
GCACGTTA: -0.0218
CGCTGTTA: -0.046
CAGAGAGG: -0.258

Excerpt of the above (block 2):
CACGTCCC: 0.253
GCGGTCAC: 0.264
AATGGCAT: 0.269
CGTGCATA: 0.313
CCGTGTCA: 0.298
GTGCGCCA: 0.288
ACGTCCAC: 0.253
GCGCACGC: 0.424
ACACCATG: 0.367
CACATGCC: 0.445
ACCCGCCC: 0.364
